Measured values of several laboratories.
A part holds a random share of what one study measured.

Block 1 — method: protein-binding microarray; form: double-stranded DNA, one strand shown; sample: in vitro; tested at: 250 nM; notes: 60-bp whole probe; added: salmon DNA 0.4 mg/ml; reference: random background probes; reading: higher = stronger binding; all sequences stand within: GCCTAGCAC … GTCTTGATTCGCTTGACGCTGCTG
Target: Interferon regulatory factor 7, full length, phosphomimetic (IRF7, Homo sapiens, UniProt Q92985, residues 1-503, S101K/S471D/S472D/S475D/S476D/S477D/S483D/S484D/S487D)
Chain of UniProt Q92985 (whole entry, unmodified, looked up): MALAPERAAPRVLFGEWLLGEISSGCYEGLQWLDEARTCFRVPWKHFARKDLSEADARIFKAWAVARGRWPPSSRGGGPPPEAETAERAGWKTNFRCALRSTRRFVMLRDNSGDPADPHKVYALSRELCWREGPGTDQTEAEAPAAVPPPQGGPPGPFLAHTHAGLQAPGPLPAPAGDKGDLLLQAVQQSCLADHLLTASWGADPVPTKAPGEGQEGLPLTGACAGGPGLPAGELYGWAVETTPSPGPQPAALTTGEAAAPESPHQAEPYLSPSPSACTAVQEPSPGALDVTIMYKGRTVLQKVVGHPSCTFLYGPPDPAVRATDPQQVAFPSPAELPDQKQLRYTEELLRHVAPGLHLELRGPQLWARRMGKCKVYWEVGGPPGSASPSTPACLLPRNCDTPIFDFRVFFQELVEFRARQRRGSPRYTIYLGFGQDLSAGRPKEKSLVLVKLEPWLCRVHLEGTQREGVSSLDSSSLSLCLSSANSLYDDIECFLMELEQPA
| Oligonucleotide | log fluorescence [z-score] |
| --- | --- |
| TTCTCTAACCTCTCTAATAAAGTGCTA | 0.531 |
| GACGATATCAGTTTCGATACGTGCTAG | 7.34 |
| GTAGGTTTCGACACTGGGTTAGTGCTA | 2.69 |
| TCAGGGCTCTTCTCTGAAACTGTGCTA | -0.325 |
| TTAGATATCGGGACTGGAATAGTGCTA | 0.0821 |
| ACTAGTTTTCATTTTCTGAAGTGCTAG | 3.96 |
| GACGGACTCGGGTATCGGGACGTGCTA | 0.59 |
| GACGATTTCAGACCGGAGACGTGCTAG | -0.159 |

Block 2 — method: RNA Bind-n-Seq; form: RNA; sample: in vitro; tested at: 1 µM; notes: whole 134-nt RNA, ends assumed; added: 150 mM KCl; reference: input library; reading: higher = stronger binding
Target: Ras GTPase-activating protein-binding protein 1, RRM domain (G3BP1, Homo sapiens, UniProt Q13283)
Chain of UniProt Q13283 (whole entry, looked up): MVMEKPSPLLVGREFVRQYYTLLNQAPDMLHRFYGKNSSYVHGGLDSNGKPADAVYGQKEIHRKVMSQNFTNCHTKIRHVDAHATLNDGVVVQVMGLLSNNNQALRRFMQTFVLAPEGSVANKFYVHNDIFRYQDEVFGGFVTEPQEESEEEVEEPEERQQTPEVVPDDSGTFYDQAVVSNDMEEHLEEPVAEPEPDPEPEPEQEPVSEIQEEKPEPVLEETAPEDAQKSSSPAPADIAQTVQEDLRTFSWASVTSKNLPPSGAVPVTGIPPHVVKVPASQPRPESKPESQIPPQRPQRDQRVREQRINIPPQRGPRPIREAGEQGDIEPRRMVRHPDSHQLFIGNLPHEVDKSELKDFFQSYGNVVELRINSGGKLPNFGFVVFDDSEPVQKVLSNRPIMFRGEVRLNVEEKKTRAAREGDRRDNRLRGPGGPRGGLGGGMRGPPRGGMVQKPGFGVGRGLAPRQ
| Oligonucleotide | log2 enrichment |
| --- | --- |
| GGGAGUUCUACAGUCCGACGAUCUGGCCCUGGUGGCAUGCGGGGAGGAAGAGGUGGCCUCAUGGAUCGUGGUGGUCCCGGUGGAAUGGUCAGAGGUGGCCGUGGUGGAGACAGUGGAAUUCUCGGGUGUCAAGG | 1.96 |
| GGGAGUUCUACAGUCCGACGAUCAGUCCUGUGCUACACAUCGUAUGUACCGAAUCGGGAAAAAAAGGGAAAGGGAAAGGGAAAGUAUUAUGUUACGCCGUUCGGAUCUGCACUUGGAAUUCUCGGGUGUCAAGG | 0.348 |
| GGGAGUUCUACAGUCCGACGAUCAGUCCUGUGCUACACAUCGUAUGUACCGAAUCGGCCCCCCGGCCCCCCGGCCCCCCGGAAAGUAUUAUGUUACGCCGUUCGGAUCUGCACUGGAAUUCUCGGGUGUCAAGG | -0.671 |
| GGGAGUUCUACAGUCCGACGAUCAGUCCUGUGCUACACAUCGUAUGUACCGAAUCGGGAAAAAGGGUUUUUUUGGGAGGGAAAGUAUUAUGUUACGCCGUUCGGAUCUGCACUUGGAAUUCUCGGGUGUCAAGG | 0.549 |
| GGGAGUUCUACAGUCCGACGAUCGUCCUGUGCUACACAUCGUAUGUACCGAAUCGGUUUUUGGAAAAAAAGGUUUUUUUGGAAAGUAUUAUGUUACGCCGUUCGGAUCUGCACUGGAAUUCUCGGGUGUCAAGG | -0.257 |

Block 3 — cell line: HEK-293T; effect on: pseudovirus infection; method: FDA-approved drug library screen; organism: VSV pseudotyped with SARS-CoV-2 spike; tested at: 10 µM; time: 16 h; reference: vehicle-treated
| SMILES | GFP-positive cells |
| --- | --- |
| CC(=O)OCC(=O)[C@@]12OC3(CCCC3)O[C@@H]1C[C@H]1[C@@H]3CCC4=CC(=O)C=C[C@]4(C)[C@@]3(F)[C@@H](O)C[C@@]12C | 96.9% |
| CC(=O)OCC(=O)[C@@]1(O)CC[C@H]2[C@@H]3CCC4=CC(=O)CC[C@]4(C)[C@H]3C(=O)C[C@@]21C | 101% |
| NCCCCCC(=O)O | 76.2% |

Block 4 — method: protein binding microarray; form: double-stranded DNA, one strand shown; sample: in vitro; tested at: not given; reference: not given; reading: higher = stronger binding
Target: Histone acetyltransferase KAT6A, winged helix 1, GST fusion (KAT6A, Homo sapiens, UniProt Q92794, residues 1-85)
Notes: 8-mer, flanks averaged, mean of 2 arrays, mostly near background
Residues (chain): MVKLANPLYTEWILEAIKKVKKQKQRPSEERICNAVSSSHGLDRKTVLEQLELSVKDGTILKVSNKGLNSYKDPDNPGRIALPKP
| Oligonucleotide | E-score |
| --- | --- |
| AGTGGCAA | -0.176 |
| CCAATAGC | -0.0755 |
| CACACTTA | -0.186 |
| ATTAACCC | 0.0546 |
| CCCCCTAA | -0.116 |
| CTTGGCCC | -0.103 |
| CGCTTTAA | 0.123 |
| AATTTCAT | -0.311 |

Block 5 — action: inhibitor; tested at: 20 µM
Target: Replicase polyprotein 1ab, nsp13 helicase (rep, Severe acute respiratory syndrome coronavirus 2, UniProt P0DTD1)
| Compound | inhibition |
| --- | --- |
| NS(=O)(=O)Oc1ccc2c3c(c(=O)oc2c1)CCCCC3 | 5.64% |
| CC(C)[C@H](N)C(=O)OCC(CO)OCn1cnc2c(=O)nc(N)[nH]c21 (stereo partly drawn) | 7.15% |
| C[C@@H](N)[C@@H](O)c1ccccc1 | 4.15% |
| CCOc1ccc(Cc2nccc3cc(OCC)c(OCC)cc23)cc1OCC | -34.6% |
| CC(C)(Oc1ccc(CCNC(=O)c2ccc(Cl)cc2)cc1)C(=O)O | 4.48% |
| COc1ccc2c(O[C@@H]3C[C@H]4C(=O)N[C@]5(C(=O)NS(=O)(=O)C6CC6)C[C@H]5/C=C\CCCCN(C)C(=O)[C@@H]4C3)cc(-c3nc(C(C)C)cs3)nc2c1C | 2.08% |
| COC(=O)Nc1nc2cc(C(=O)c3ccccc3)ccc2[nH]1 | 5.89% |
| CC(C)CC(=O)N[C@H](C(=O)N[C@H](C(=O)N[C@@H](CC(C)C)[C@@H](O)CC(=O)N[C@@H](C)C(=O)N[C@@H](CC(C)C)[C@@H](O)CC(=O)O)C(C)C)C(C)C | -2.09% |
| C[N+]1(C)[C@@H]2C[C@@H](OC(=O)C(O)(c3cccs3)c3cccs3)C[C@H]1[C@@H]1O[C@@H]12 | -1.78% |
| COc1ccc(-c2nc(-c3ccc(-c4cccc(Cl)c4)o3)[nH]c2-c2ccc(OC)cc2)cc1 | -1.39% |
| O=C1NC(=O)c2c1c1c3ccccc3[nH]c1c1[nH]c3ccccc3c21 | 4.6% |
| O=C(O)c1ccccc1S | 7.51% |
| CCCC(=O)Nc1cccc(NC(=O)c2ccccc2Br)c1 | 3.59% |
| C=C[C@@H]1C2=CCOC(=O)C2=CO[C@H]1O[C@@H]1O[C@H](CO)[C@@H](O)[C@H](O)[C@H]1O | -2.29% |
| COc1ccc(C2CC(c3c(O)cc(C)oc3=O)=NCCS2)c(OC)c1 (stereo not drawn) | -7.04% |
| COC(=O)C1=CO[C@@H](O)[C@@H]2C(CO)=CC[C@H]12 | 10.7% |
| CCS(=O)(=O)CCn1c([N+](=O)[O-])cnc1C | 5.17% |
| C[C@@]12N[C@@H](Cc3ccccc31)c1ccccc12 | 2.71% |
| Cc1cc(CCCOc2c(C)cc(-c3noc(C(F)(F)F)n3)cc2C)on1 | 4.76% |
| CCN(CC)CCCCNc1ncc2cc(-c3c(Cl)cccc3Cl)c(NC(=O)NC(C)(C)C)nc2n1 | -2.02% |
| CC(=O)N(CC(O)CN(C(C)=O)c1c(I)c(C(=O)NC[C@@H](O)CO)c(I)c(C(=O)NC[C@@H](O)CO)c1I)c1c(I)c(C(=O)NC[C@@H](O)CO)c(I)c(C(=O)NC[C@@H](O)CO)c1I | 2.14% |
| CC#C[C@@H](CC(=O)O)c1ccc(OCc2cccc(-c3ccc(C(F)(F)F)cc3)c2)cc1 | 6.76% |
| NC(=O)CN1CC[C@@H](NC(=O)[C@@H]2CCCN2)C1=O | 5.24% |
| Cc1nc2ccc(-n3ncc(C(=O)c4cc5ccccc5[nH]4)c3N)cc2[nH]1 | 7.97% |
| Cc1cc(Nc2ncnc3ccc(-c4ccc(CNCCS(C)(=O)=O)o4)cc23)ccc1Oc1ccn2ncnc2c1 | 11.6% |

Block 6 — organism: SARS-CoV-2; effect on: cytopathic effect; cells: Vero E6; tested at: 10 µM
| SMILES | inhibition [%] |
| --- | --- |
| C=C1C(=O)[C@]23[C@H](O)[C@H]1CC[C@@H]2[C@@]12CO[C@]3(O)C[C@@H]1C(C)(C)CC[C@@H]2O | -30.2 |
| O=C(NCCCNc1nc(Nc2cccc(NC(=O)N3CCCC3)c2)ncc1I)c1cccs1 | -5.2 |
| O=C1C[C@@H]2OCC=C3CN4CC[C@]56c7ccccc7N1[C@H]5[C@H]2[C@H]3C[C@H]46 | -14.1 |
| CC[N+](C)(CC)CCC[n+]1c(-c2ccccc2)c2cc(N)ccc2c2ccc(N)cc21 | 3.6 |
| CCCCCCCCCCCCCCCC[n+]1ccn(Cc2ccccc2)c1C | -34.1 |
| COCCCOc1ccnc(C[S+]([O-])c2nc3ccccc3[nH]2)c1C (stereo not drawn) | 0.7 |
| O=C(O)C1=CC(=C(c2ccc(O)c(C(=O)O)c2)c2ccc(O)c(C(=O)O)c2)C=CC1=O | -9.2 |
| N.N.[Cl][Pt][Cl] | 6.9 |

For quick reference, copied from above (block 5):
| Compound | inhibition |
| --- | --- |
| Cc1cc(CCCOc2c(C)cc(-c3noc(C(F)(F)F)n3)cc2C)on1 | 4.76% |
| CC(C)CC(=O)N[C@H](C(=O)N[C@H](C(=O)N[C@@H](CC(C)C)[C@@H](O)CC(=O)N[C@@H](C)C(=O)N[C@@H](CC(C)C)[C@@H](O)CC(=O)O)C(C)C)C(C)C | -2.09% |
| Cc1nc2ccc(-n3ncc(C(=O)c4cc5ccccc5[nH]4)c3N)cc2[nH]1 | 7.97% |
